Experimental data from different studies.
Each numbered part is a random draw from the data of one study; scales do not carry over between parts.
Sequence of UniProt O15294 (whole entry, looked up): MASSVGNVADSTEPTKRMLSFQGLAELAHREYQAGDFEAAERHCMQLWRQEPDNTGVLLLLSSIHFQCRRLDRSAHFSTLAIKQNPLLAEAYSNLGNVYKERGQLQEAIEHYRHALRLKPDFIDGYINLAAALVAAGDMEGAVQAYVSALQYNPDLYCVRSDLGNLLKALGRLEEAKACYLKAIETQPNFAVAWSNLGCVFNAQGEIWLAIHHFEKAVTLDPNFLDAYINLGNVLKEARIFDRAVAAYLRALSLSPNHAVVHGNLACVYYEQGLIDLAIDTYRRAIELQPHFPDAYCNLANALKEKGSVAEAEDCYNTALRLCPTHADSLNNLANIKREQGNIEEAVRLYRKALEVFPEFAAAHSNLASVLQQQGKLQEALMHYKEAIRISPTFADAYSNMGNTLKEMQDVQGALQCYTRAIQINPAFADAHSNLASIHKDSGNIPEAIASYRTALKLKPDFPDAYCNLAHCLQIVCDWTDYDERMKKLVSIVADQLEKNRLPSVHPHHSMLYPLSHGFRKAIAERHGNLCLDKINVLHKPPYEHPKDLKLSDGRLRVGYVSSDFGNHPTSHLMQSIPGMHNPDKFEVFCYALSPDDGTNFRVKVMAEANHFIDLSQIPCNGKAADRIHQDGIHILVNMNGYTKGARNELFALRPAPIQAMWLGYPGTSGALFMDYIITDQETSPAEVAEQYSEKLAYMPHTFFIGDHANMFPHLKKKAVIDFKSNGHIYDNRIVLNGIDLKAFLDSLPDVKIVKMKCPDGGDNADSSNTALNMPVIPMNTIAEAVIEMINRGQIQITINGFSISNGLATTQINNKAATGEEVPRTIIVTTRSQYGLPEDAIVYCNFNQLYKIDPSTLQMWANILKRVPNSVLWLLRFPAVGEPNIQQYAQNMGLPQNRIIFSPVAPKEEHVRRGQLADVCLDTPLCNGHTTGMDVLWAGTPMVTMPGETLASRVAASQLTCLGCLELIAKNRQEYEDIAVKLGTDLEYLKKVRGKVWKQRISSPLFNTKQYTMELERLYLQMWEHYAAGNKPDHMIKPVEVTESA

Block 1
Target: TATA-box-binding protein 1 (TBP1, Arabidopsis thaliana, UniProt P28147, residues 1-200, full length assumed)
Method: protein-binding microarray
Molecule type: double-stranded DNA, one strand shown
Medium: in vitro
Concentration: not given
Setting: k-mer, scored over probes, only values ≥0.25
Reading: higher = stronger binding
Target sequence (chain): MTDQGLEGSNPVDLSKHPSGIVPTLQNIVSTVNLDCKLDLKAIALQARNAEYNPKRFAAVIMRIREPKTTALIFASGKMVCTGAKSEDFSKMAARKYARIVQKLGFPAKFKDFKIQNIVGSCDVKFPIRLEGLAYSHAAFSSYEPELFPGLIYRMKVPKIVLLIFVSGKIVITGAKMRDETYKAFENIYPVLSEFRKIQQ
`ATAAGTC` has an E-score of 0.314.
`AAGTAAT` gave an E-score of 0.32.
With `AAGTATT` the E-score was 0.305.
For `CTAATAA`, the E-score was 0.306.
For `CTTAATA`, the E-score was 0.346.
`AGTTAAA` has an E-score of 0.38.
`TACTAAA` has an E-score of 0.272.
With `GTATATA` the E-score was 0.479.

Block 2
Target: Sal-like protein 4, full length isoform A (SALL4, Homo sapiens, UniProt Q9UJQ4, residues 1-1053)
Sequence of UniProt Q9UJQ4 (whole entry, looked up): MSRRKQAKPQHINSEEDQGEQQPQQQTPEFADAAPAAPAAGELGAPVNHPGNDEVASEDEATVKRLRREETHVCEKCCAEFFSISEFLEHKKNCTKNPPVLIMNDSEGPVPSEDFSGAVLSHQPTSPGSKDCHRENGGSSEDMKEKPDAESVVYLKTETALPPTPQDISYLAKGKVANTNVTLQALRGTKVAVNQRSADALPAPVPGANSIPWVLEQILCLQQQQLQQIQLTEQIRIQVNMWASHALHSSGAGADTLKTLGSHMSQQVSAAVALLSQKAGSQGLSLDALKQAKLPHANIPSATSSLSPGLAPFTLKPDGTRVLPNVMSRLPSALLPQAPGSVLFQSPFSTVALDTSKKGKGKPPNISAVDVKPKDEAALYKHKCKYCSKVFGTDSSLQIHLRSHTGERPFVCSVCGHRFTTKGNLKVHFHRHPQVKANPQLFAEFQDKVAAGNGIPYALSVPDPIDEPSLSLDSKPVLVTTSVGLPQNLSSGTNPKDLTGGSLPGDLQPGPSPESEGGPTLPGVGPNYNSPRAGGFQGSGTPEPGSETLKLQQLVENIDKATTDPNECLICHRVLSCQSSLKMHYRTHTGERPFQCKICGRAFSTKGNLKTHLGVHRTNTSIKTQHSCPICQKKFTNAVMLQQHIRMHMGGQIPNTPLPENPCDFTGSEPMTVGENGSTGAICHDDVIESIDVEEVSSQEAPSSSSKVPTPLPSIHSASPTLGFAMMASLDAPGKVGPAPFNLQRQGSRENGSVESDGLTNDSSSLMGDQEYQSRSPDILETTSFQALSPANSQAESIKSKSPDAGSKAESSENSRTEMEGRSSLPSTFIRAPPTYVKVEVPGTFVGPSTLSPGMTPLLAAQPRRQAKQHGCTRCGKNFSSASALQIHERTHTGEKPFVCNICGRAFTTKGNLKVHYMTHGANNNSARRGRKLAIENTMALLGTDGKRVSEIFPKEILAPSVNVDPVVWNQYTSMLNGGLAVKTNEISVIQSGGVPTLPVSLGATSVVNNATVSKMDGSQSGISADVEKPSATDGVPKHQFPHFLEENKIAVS
Method: universal PBM
Molecule type: double-stranded DNA, one strand shown
Medium: in vitro
Concentration: 600 nM
Setting: 8-mer, flanks averaged, mean of replicates
Reading: higher = stronger binding
For `AATGCAAT`, the E-score was 0.249.
`CTACTTAC` has an E-score of 0.174.
The E-score of `CGCTCCGA` is reported as -0.15.
`CCAACGGG` gave an E-score of -0.276.
For `AAGAAGTC`, the E-score was 0.113.
`AGGTTCAG` gave an E-score of -0.025.
`TCTATCAA` gave an E-score of 0.217.
With `CAGACCTC` the E-score was -0.237.

Block 3
Target: PABPC1L2, full length, GST fusion (mouse, UniProt A0ABA7IW68)
Method: RNAcompete
Molecule type: RNA
Medium: in vitro
Concentration: 20 nM
Setting: 7-mer, probes averaged, single round
Reference: mean of 7-mers
Reading: higher = stronger binding
Construct (chain): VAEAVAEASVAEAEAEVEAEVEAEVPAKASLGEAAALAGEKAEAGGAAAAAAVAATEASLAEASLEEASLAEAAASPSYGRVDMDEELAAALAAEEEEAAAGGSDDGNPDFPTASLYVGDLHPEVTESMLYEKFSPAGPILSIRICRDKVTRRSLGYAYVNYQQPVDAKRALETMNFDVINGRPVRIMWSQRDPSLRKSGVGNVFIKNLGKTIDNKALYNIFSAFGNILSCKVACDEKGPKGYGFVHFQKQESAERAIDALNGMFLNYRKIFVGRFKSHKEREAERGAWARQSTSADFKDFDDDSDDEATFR
`AAGGUGU` gave a 7-mer Z-score of 0.0986.
The 7-mer Z-score of `AUUAGGG` is reported as 0.298.
`CGACGUU` has a 7-mer Z-score of -0.141.
For `ACAACAG`, the 7-mer Z-score was 0.294.
The 7-mer Z-score of `GUCGGCA` is reported as 0.184.
`GAUCCAC` has a 7-mer Z-score of -0.193.
With `CAGUGGG` the 7-mer Z-score was 0.177.
The 7-mer Z-score of `AUGAGAU` is reported as 0.0352.

Further values, each from its own experiment
Under “enrichment fold change”, `TITHNRTPWGSHHIH` is recorded as 10.6 (UDP-N-acetylglucosamine--peptide N-acetylglucosaminyltransferase 110 kDa subunit (OGT, Homo sapiens, UniProt O15294); binding, phage display NGS; peptide; concentration not given; reference: input library).
